Experimental data from different studies.
Organism: Enterobacter cloacae

| Structure (SMILES) | assay | test system | setting | MIC |
| --- | --- | --- | --- | --- |
| CCCCCCCCCCCCCC(=O)N[C@@H]1CCNC(=O)[C@H](CC(=O)O)NC(=O)[C@H](C(C)C)NC(=O)[C@@H](Cc2ccc(O)cc2)NC(=O)[C@H](CCN)NC(=O)[C@H](CC(C)C)NC(=O)[C@@H](Cc2ccccc2)NC(=O)[C@H](CCN)NC(=O)[C@H](CC(C)C)NC(=O)[C@H](CCN)NC(=O)[C@H]([C@@H](C)O)NC1=O | broth microdilution | BNCC 185028 |  | > 64 µg/mL |
| CC[C@H](C)[C@H](NC(=O)[C@H](CCCNC(=N)N)NC(=O)CNC(=O)[C@H](CC(C)C)NC(=O)[C@H](CC(C)C)NC(=O)[C@H](CCCCN)NC(=O)[C@H](Cc1ccccc1)NC(=O)[C@H](C)N)C(=O)N[C@H](C(=O)N[C@@H](Cc1c[nH]cn1)C(=O)N[C@@H](Cc1c[nH]cn1)C(=O)N[C@H](C(=O)NCC(=O)N[C@@H](CC(N)=O)C(=O)N[C@@H](Cc1ccccc1)C(=O)N[C@H](C(=O)N[C@@H](Cc1ccc(O)c(O)c1)C(=O)NCC(=O)N[C@@H](Cc1ccccc1)C(=O)N[C@@H](CO)C(=O)N[C@@H](Cc1c[nH]cn1)C(=O)N[C@H](C(=O)N[C@@H](Cc1ccccc1)C(N)=O)C(C)C)C(C)C)C(C)C)[C@@H](C)CC | broth microdilution | AR 0136 | pH 5.5 | 8 µM |
| CCCCCCCCCCCCCC(=O)N[C@H](CCN)C(=O)N[C@H](C(=O)N[C@@H](CCN)C(=O)N[C@@H](CC(C)C)C(=O)N[C@@H](CCN)C(=O)N[C@H](Cc1ccccc1)C(=O)N[C@@H](CC(C)C)C(=O)N[C@@H](CCN)C(=O)N[C@H](Cc1ccc(O)cc1)C(=O)N[C@H](C(=O)N[C@@H](CC(=O)O)C(=O)O)C(C)C)[C@@H](C)O | broth microdilution | BNCC 185028 |  | 4 µg/mL |
| Cc1cc(N)c2cc(NC(=O)c3ccc4cc(C5CC5)ccc4c3)ccc2n1 |  | ATCC 13047 |  | > 100 µM |
| CC(C)Oc1ccc(B(O)O)c(F)n1 | bacterial growth | AmpC-overproducing clinical isolate | cefotaxime alone | 8 µg/mL |
| Cc1cc(N)c2cc(NC(=O)c3ccc4c(-c5ccccc5O)cccc4c3)ccc2n1 |  | ATCC 13047 |  | > 100 µM |
| CC[P+](CC)(CC)[Au-][S][C@@H]1O[C@H](COC(C)=O)[C@@H](OC(C)=O)[C@H](OC(C)=O)[C@H]1NC(C)=O |  | NCTC 13405 |  | 47 µM |
| CC[C@H](C)[C@H](NC(=O)[C@H](CCCCN)NC(=O)CNC(=O)[C@H](CC(C)C)NC(=O)[C@H](CC(C)C)NC(=O)[C@H](Cc1c[nH]cn1)NC(=O)[C@H](Cc1ccccc1)NC(=O)[C@@H](N)C(C)C)C(=O)N[C@H](C(=O)N[C@@H](Cc1c[nH]cn1)C(=O)N[C@@H](Cc1c[nH]cn1)C(=O)N[C@H](C(=O)NCC(=O)N[C@@H](CC(N)=O)C(=O)N[C@@H](Cc1ccccc1)C(=O)N[C@H](C(=O)N[C@@H](Cc1ccc(O)c(O)c1)C(=O)NCC(=O)N[C@@H](Cc1ccccc1)C(=O)N[C@@H](CO)C(=O)N[C@@H](Cc1c[nH]cn1)C(=O)N[C@H](C(=O)N[C@@H](Cc1ccccc1)C(N)=O)C(C)C)C(C)C)C(C)C)[C@@H](C)CC | broth microdilution | AR 0136 | pH 7.4 | > 128 µM |
| OB(O)c1cnn(-c2cccc(Cl)c2)c1 | bacterial growth | AmpC-overproducing clinical isolate | cefotaxime alone | 4 µg/mL |

A few entries again:
| Structure (SMILES) | assay | test system | setting | MIC |
| --- | --- | --- | --- | --- |
| Cc1cc(N)c2cc(NC(=O)c3ccc4c(-c5ccccc5O)cccc4c3)ccc2n1 |  | ATCC 13047 |  | > 100 µM |
| CC[C@H](C)[C@H](NC(=O)[C@H](CCCCN)NC(=O)CNC(=O)[C@H](CC(C)C)NC(=O)[C@H](CC(C)C)NC(=O)[C@H](Cc1c[nH]cn1)NC(=O)[C@H](Cc1ccccc1)NC(=O)[C@@H](N)C(C)C)C(=O)N[C@H](C(=O)N[C@@H](Cc1c[nH]cn1)C(=O)N[C@@H](Cc1c[nH]cn1)C(=O)N[C@H](C(=O)NCC(=O)N[C@@H](CC(N)=O)C(=O)N[C@@H](Cc1ccccc1)C(=O)N[C@H](C(=O)N[C@@H](Cc1ccc(O)c(O)c1)C(=O)NCC(=O)N[C@@H](Cc1ccccc1)C(=O)N[C@@H](CO)C(=O)N[C@@H](Cc1c[nH]cn1)C(=O)N[C@H](C(=O)N[C@@H](Cc1ccccc1)C(N)=O)C(C)C)C(C)C)C(C)C)[C@@H](C)CC | broth microdilution | AR 0136 | pH 7.4 | > 128 µM |
